Results pooled from the literature.
Protocols differ between the studies behind these lines.
B1: EFR3A 721-791 K732E (Homo sapiens, UniProt Q14156); chain SNTEEITFEALEKAIDTSGMEEQEKEKRRLVIEKFQKAPFEEIAAQCESKANLLHDRLAQILELTIRPPPS
B2: YDJ1 residues 1-109 (Saccharomyces cerevisiae, UniProt P25491); chain GEFGSMVKETKFYDILGVPVTATDVEIKKAYRKCALKYHPDKNPSEEAAEKFKEASAAYEILSDPEKRDIYDQFGEDGLSGAGGAGGFPGGGFGFGDDIFSQFFGAGGAQRPRG
B3: dnaG P16 domain 453-597 (Geobacillus stearothermophilus, UniProt Q9X4D0); sequence looked up; chain AKKLLPAFQNAERLLLAHMMRSRDVALVVQERIGGRFNIEEHRALAAYIYAFYEEGHEADPGALISRIPGELQPLASDVSLLLIADDVSEQELEDYIRHVLNRPKWLMLKVKEQEKTEAERRKDFLTAARIAKEMIEMKKMLSSS
B4: EIF2S2 1-191 (Homo sapiens, UniProt P20042); sequence looked up; chain MSGDEMIFDPTMSKKKKKKKKPFMLDEEGDTQTEETQPSETKEVEPEPTEDKDLEADEEDTRKKDASDDLDDLNFFNQKKKKKKTKKIFDIDEAEEGVKDLKIESDVQEPTEPEDDLDIMLGNKKKKKKNVKFPDEDEILEKDEALEDEDNKKDDGISFSNQTGPAWAGSERDYTYEELLNRVFNIMREKN
B5: BZIP28 1-322 (Arabidopsis thaliana, UniProt Q9SG86); sequence looked up; chain MTESTSVVAPPPEIPNLNPSMFSESDLFSIPPLDPLFLSDSDPISMDAPISDLDFLLDDENGDFADFDFSFDNSDDFFDFDLSEPAVVIPEEIGNNRSNLDSSENRSGDGGLEGRSESVHSQVSSQGSKTFVSDTVDASSSPESSNHQKSSVSKRKKENGDSSGELRSCKYQKSDDKSVATNNEGDDDDDKRKLIRQIRNRESAQLSRLRKKQQTEELERKVKSMNATIAELNGKIAYVMAENVALRQQMAVASGAPPMNPYMAAPPLPYQWMPYPPYPVRGYGSQTPLVPIPKLNPKPVSSCRPKKAESKKNEGKSKLKKV
B6: PSMA4 (Homo sapiens, UniProt P25789); chain MSRRYDSRTTIFSPEGRLYQVEYAMEAIGHAGTCLGILANDGVLLAAERRNIHKLLDEVFFSEKIYKLNEDMACSVAGITSDANVLTNELRLIAQRYLLQYQEPIPCEQLVTALCDIKQAYTQFGGKRPFGVSLLYIGWDKHYGFQLYQSDPSGNYGGWKATCIGNNSAAAVSMLKQDYKEGEMTLKSALALAIKVLNKTMDVSKLSAEKVEIATLTRENGKTVIRVLKQKEVEQLIKKHEEEEAKAEREKKEKEQKEKDK
B7: rasC Q62L/R164E (Dictyostelium discoideum, UniProt P32253); sequence looked up; chain MSKLLKLVIVGDGGVGKSALTIQLTQNQFIAEYDPTIENSYRKQVNIDEEVYMLDILDTAGLEEYSAMRDQYIRSGRGFLIVYSIISRASFEAVTTFREQILRVKDLSTYPIVIIGNKADLPDKDRKVPPMEGKELAKSFGAPFLETSAKSRVNVEEAFFTLVEEIKRWNQNPQNEEMLPPKKRGCIIL
B8: cysJ 52-599 (Escherichia coli, UniProt P38038); sequence looked up; chain AATPAPAAEMPGITIISASQTGNARRVAEALRDDLLAAKLNVKLVNAGDYKFKQIASEKLLIVVTSTQGEGEPPEEAVALHKFLFSKKAPKLENTAFAVFSLGDSSYEFFCQSGKDFDSKLAELGGERLLDRVDADVEYQAAASEWRARVVDALKSRAPVVATGAVNEIHTSPYSKDAPLVASLSVNQKITGRNSEKDVRHIEIDLGDSGMRYQPGDALGVWYQNDPALVKELVELLWLKGDEPVTVEGKTLPLNEALQWHFELTVNTANIVENYATLTRSETLLPLVGDKAKLQHYAATTPIVDMVRFSPAQLDAEALINLLRPLTPRLYSIASSQAEVENEVHVTVGVVRYDVEGRARAGGASSFLADRVEEEGEVRVFIEHNDNFRLPANPETPVIMIGPGTGIAPFRAFMQQRAADEAPGKNWLFFGNPHFTEDFLYQVEWQRYVKDGVLTRIDLAWSRDQKEKVYVQDKLREQGAELWRWINDGAHIYVCGDANRMAKDVEQALLEVIAEFGGMDTEAADEFLSELRVERRYQRDVY
B9: PTK2 102-252 (Homo sapiens, UniProt Q05397); sequence looked up; chain MGVSSVREKYELAHPPEEWKYELRIRYLPKGFLNQFTEDKPTLNFFYQQVKSDYMLEIADQVDQEIALKLGCLEIRRSYWEMRGNALEKKSNYEVLEKDVGLKRFFPKSLLDSVKAKTLRKLIQQTFRQFANLNREESILKFFEILSPVYR
B10: KtrC (Bacillus subtilis, UniProt P39760); sequence looked up; chain MKKEFAVIGLGRFGGSICKALSEEGVEVMAMDIDEDKVNEYAKIASHAVIGDSTDESVLKNLGLRNFDHVIVAIGENIQASILTTLILKELGVHTITVKAQNDYHEKVLSKIGADHIVHPERDMAKRIAHNIVSNNVLDYLELSEEHSLVEIVANSRLAGNTLLDLDIRAKYGINIVAIKRGKEVIVSPLATEVIHQEDILIVIGSVTDISRFEKRVLHTK
B11: SNAPC4 1-505 (Homo sapiens, UniProt Q5SXM2); chain MDVDAEREKITQEIKELERILDPGSSGSHVEISESSLESDSEADSLPSEDLDPADPPISEEERWGEASNDEDDPKDKTLPEDPETCLQLNMVYQEVIQEKLAEANLLLAQNREQQEELMRDLAGSKGTKVKDGKSLPPSTYMGHFMKPYFKDKVTGVGPPANEDTREKAAQGIKAFEELLVTKWKNWEKALLRKSVVSDRLQRLLQPKLLKLEYLHQKQSKVSSELERQALEKQGREAEKEIQDINQLPEEALLGNRLDSHDWEKISNINFEGSRSAEEIRKFWQNSEHPSINKQEWSREEEERLQAIAAAHGHLEWQKIAEELGTSRSAFQCLQKFQQHNKALKRKEWTEEEDRMLTQLVQEMRVGSHIPYRRIVYYMEGRDSMQLIYRWTKSLDPGLKKGYWAPEEDAKLLQAVAKYGEQDWFKIREEVPGRSDAQCRDRYLRRLHFSLKKGRWNLKEEEQLIELIEKYGVGHWAKIASELPHRSGSQCLSKWKIMMGKKQGL
B12: MDM4 23-111, p53-binding domain (Homo sapiens, UniProt O15151); chain GPLGSQINQVRPKLPLLKILHAAGAQGEMFTVKEVMHYLGQYIMVKQLYDQQEQHMVYCGGDLLGELLGRQSFSVKDPSPLYDMLRKNLVTLAT
B13: spt16 1-442 (Schizosaccharomyces pombe, UniProt O94267); chain MAEYEIDEITFHKRLGILLTSWKNEEDGKTLFQDCDSILVTVGAHDDTNPYQKSTALHTWLLGYEFPSTLILLEKHRITILTSVNKANMLTKLAETKGAAADVNILKRTKDAEENKKLFEKIIEYIRATNKKVGVFPKDKTQGKFINEWDSIFEPVKSEFNLVDASLGLAKCLAIKDEQELANIKGASRVSVAVMSKYFVDELSTYIDQGKKITHSKFSDQMESLIDNEAFFQTKSLKLGDIDLDQLEWCYTPIIQSGGSYDLKPSAITDDRNLHGDVVLCSLGFRYKSYCSNVGRTYLFDPDSEQQKNYSFLVALQKKLFEYCRDGAVIGDIYTKILGLIRAKRPDLEPNFVRNLGAGIGIEFRESSLLVNAKNPRVLQAGMTLNLSIGFGNLINPHPKNSQSKEYALLLIDTIQITRSDPIVFTDSPKAQGDISYFFGED
B14: Secisbp2 399-846 x (Rattus norvegicus, UniProt Q9QX72); sequence looked up; chain EFPNLSVASERRHRGESPKLQSKQQAQNDFKTGGKKSQVPVQLDLGGMLAALEKQQHAPHAKPSSRPVVFSVGAVPVLSKDASSGERGRRSSQVKTPHNPLDSSAAAAAAGKQREIPKAKKPTSLKKIILKERQERMQQRLQESAVSPTVASDDSQDVESGVTNQIPSPDNPTGPEKTEEPMSSTPVVEGESEEPAGTEFQRDPEACQPAPDSATFPKIHSRRFRDYCSQMLSKEVDACVTGLLKELVRFQDRMYQKDPVKAKTKRRLVLGLREVLKHLKLRKLKCIIISPNCEKTQSKGGLDDTLHTIIDCACEQNIPFVFALNRKALGRSLNKAVPVSIVGIFSYDGAQDQFHKMVELTMAARQAYKTMLETMRQEQAGEPGPQTPPSPPMQDPIQSTDEGTLASTGEEPHYIEIWRKHLEAYSQHALELEDSLEASTSQMMNLNL
B15: Fcho2 1-390 (Rattus norvegicus, UniProt D3ZYR1); chain MVMAHFVENFWGEKNNGFDVLYHNMKHGQISTKELADFVRERATIEEAYSRSMTKLAKSASNYSQLGTFAPVWDVFKTSTEKLANCHLDLVRKLQELIKEVQKYGEEQVKSHKKTKEEVAGTLEAVQAIQNITQALQKSKENYNAKCVEQERLKKEGATPREIEKAAVKSKKATDTYKLYVEKYALTKADFEQKMTETAQKFQDIEETHLIHIKEIIGSLSNAIKEIHLQIGQVHEEFINNMANTTIESLIQKFAESKGTGKERPGLIEFEECDPASAVEGIKPRKRKTFALPGIIKKEKDAESVECPDADSLNIPDVDEEGFSIKPEANQNDTKENHFYSSSDSDSEDEEPKRYRIEIKPVHPNNVHHTMASLDELKVSIGNITLSPAV
Chain of UniProt P0A9P0 (whole entry, looked up): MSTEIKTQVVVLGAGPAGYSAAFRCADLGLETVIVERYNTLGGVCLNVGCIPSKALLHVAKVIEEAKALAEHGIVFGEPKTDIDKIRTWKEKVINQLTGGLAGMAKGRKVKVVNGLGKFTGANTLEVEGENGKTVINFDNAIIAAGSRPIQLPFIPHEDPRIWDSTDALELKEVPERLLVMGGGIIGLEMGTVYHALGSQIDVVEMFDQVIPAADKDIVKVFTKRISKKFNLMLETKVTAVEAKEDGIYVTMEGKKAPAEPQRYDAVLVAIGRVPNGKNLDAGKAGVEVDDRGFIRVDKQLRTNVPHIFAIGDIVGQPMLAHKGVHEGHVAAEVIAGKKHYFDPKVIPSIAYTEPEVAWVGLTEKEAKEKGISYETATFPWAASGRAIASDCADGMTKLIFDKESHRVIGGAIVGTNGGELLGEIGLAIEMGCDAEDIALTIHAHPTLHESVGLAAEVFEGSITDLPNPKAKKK
Chain of UniProt P17846 (whole entry, looked up): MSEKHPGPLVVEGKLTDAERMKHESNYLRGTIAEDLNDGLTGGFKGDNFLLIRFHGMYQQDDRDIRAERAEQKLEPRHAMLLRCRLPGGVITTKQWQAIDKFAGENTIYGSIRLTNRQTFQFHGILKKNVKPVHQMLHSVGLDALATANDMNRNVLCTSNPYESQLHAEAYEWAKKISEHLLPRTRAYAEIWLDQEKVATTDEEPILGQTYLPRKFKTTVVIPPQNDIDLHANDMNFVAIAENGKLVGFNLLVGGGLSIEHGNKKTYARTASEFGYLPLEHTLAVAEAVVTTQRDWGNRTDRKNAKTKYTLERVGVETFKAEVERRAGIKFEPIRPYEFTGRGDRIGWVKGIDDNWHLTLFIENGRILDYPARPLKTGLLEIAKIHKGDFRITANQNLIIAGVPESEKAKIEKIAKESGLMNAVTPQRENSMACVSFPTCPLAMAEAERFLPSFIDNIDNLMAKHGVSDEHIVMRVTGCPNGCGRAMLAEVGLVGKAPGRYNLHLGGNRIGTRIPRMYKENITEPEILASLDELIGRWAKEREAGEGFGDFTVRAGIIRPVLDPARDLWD
Chain of UniProt P92973 (whole entry, looked up): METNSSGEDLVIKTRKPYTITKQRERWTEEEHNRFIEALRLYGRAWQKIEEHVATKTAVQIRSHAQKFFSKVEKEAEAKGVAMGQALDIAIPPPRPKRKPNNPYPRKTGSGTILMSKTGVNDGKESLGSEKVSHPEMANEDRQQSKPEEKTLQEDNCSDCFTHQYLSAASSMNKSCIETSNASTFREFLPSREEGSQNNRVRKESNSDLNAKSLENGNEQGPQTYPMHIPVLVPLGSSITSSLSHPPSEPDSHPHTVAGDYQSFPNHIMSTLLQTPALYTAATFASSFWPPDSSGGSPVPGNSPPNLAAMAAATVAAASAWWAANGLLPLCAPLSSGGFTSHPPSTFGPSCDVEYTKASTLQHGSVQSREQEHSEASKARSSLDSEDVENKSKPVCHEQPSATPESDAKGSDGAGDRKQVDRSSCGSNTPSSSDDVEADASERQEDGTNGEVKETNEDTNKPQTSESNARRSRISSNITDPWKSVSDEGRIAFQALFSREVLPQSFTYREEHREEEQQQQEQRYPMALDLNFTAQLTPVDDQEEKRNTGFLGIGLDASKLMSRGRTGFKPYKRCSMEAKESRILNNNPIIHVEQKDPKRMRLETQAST
Chain of UniProt O14114 (whole entry, looked up): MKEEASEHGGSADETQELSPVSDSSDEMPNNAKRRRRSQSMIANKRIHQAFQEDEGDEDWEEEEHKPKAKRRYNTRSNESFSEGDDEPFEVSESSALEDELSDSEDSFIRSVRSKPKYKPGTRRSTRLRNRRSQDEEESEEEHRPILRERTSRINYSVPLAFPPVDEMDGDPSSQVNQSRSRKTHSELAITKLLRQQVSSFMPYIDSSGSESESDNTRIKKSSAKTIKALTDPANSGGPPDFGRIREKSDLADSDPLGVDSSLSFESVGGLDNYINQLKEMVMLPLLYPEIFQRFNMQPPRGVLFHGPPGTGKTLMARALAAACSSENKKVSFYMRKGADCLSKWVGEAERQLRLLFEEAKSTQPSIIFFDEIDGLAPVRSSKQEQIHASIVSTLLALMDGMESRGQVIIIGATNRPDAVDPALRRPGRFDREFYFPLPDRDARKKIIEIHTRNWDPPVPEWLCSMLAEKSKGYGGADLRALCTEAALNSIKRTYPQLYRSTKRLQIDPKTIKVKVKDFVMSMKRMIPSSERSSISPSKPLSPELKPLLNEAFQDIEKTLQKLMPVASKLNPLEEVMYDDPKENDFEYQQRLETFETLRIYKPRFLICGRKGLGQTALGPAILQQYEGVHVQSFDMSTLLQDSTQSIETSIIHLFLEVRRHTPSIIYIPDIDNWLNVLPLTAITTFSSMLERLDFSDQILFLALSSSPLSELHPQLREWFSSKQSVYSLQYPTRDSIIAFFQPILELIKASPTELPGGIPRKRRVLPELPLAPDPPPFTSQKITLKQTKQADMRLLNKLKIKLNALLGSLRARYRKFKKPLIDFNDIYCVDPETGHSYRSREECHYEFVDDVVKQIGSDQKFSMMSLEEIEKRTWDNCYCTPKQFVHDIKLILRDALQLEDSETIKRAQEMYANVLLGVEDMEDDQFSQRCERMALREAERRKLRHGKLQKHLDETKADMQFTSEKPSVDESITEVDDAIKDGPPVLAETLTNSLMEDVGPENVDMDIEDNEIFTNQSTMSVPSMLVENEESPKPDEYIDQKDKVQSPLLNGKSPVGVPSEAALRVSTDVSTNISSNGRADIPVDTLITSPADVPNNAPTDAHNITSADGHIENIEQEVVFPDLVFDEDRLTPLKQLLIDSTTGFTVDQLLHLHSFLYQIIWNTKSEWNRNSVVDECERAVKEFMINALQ
Chain of UniProt Q9H6S1 (whole entry, looked up): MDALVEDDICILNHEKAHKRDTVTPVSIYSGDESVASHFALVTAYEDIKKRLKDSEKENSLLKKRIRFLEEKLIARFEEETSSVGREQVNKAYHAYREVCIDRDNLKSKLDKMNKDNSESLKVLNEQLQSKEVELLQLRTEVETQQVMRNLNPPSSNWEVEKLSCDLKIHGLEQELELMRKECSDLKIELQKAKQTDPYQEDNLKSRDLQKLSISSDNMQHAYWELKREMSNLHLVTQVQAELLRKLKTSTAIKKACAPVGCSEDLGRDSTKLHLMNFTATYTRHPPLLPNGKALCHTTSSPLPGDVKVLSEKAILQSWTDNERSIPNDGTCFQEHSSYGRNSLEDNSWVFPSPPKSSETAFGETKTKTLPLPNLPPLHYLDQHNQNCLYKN
Chain of UniProt P42568 (whole entry, looked up): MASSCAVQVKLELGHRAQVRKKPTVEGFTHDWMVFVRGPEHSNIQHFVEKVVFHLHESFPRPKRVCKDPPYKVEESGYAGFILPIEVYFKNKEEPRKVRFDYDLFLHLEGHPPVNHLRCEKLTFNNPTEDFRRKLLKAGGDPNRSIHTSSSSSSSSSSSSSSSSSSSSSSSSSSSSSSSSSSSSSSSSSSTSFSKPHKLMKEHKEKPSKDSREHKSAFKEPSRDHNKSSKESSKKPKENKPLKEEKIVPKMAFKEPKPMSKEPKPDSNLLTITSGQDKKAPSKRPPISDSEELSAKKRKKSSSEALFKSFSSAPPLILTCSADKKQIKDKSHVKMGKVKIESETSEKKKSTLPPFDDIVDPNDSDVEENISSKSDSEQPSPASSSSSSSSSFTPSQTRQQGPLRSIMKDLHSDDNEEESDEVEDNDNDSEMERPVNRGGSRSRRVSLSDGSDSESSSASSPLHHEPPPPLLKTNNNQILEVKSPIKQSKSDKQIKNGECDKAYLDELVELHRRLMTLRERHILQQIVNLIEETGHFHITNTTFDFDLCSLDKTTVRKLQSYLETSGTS
Chain of UniProt Q9JHW4 (whole entry, looked up): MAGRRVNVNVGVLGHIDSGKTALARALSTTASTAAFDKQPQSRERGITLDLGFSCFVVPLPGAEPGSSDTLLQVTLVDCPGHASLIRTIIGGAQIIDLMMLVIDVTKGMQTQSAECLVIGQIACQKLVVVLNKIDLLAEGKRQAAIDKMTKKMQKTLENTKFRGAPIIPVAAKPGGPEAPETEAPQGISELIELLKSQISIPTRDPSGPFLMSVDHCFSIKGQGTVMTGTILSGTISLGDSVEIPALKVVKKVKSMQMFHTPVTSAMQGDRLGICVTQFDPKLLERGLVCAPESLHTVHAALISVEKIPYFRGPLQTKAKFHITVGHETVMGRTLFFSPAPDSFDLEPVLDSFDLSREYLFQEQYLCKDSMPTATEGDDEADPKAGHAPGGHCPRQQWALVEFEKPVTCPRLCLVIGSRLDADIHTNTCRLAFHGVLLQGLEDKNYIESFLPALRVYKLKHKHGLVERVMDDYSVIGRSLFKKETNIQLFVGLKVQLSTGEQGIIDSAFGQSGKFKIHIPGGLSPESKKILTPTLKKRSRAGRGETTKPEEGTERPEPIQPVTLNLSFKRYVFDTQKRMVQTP
Chain of UniProt O32081 (whole entry, looked up): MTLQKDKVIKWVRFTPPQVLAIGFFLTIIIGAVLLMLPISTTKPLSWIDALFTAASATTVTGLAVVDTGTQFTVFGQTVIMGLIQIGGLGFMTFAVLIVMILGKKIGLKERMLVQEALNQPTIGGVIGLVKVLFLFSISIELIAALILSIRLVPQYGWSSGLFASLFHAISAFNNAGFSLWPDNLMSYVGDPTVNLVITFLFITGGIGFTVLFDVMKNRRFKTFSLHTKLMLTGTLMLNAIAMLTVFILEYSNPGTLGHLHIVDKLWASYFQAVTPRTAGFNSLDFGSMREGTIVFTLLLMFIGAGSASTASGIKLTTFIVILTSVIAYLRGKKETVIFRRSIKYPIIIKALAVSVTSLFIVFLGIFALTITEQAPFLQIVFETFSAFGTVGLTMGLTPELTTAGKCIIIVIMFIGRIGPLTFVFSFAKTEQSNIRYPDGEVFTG

Substance | tested on | assay | system | setting | how to read | measurement | value
FAEKFKEAVKDYFAKFWDPAAEKLKEAVKDYFAKLWD (reversed nanodisc peptide NSPr) | SOAT1 (Homo sapiens, UniProt P35610) | native gel | peptide | – | – | binding | binds
B1 (EFR3A 721-791 K732E) | TTC7B/FAM126A FAM126A 1-308 (Homo sapiens) | BLI | – | – | – | binding | binds
B2 (YDJ1 residues 1-109) | SSA1 T201A (Saccharomyces cerevisiae, UniProt P10591) | NMR titration | – | together with: ATP | – | binding | binds
PKRSFIESNV | human MAGI1-3/6 PDZ construct (MBP fusion) | automated holdup | peptide, crude extract | concentration not given, corrected by standard peak, unit not given | baseline: biotin control resin, higher = stronger binding | binding intensity | 0.0568
B3 (dnaG P16 domain 453-597) | dnaB I119A/I125A (Geobacillus stearothermophilus, UniProt Q9X4C9) | NMR titration | – | – | – | binding | binds
B4 (EIF2S2 1-191) | EIF5 196-431 (Homo sapiens, UniProt P55010) | NMR titration | – | – | – | binding | binds
lpdA (Escherichia coli, UniProt P0A9P0) | aceF (Escherichia coli, UniProt P06959) | negative-stain EM, thermal unfolding | – | – | – | binding | binds
B5 (BZIP28 1-322) | CCA1 1-405 (Arabidopsis thaliana, UniProt P92973) | pull-down | – | – | – | binding | binds
SNX16 (Homo sapiens, UniProt P57768) | SNX17 (Homo sapiens, UniProt Q15036) | pull-down | – | – | – | binding | binds
B6 (PSMA4) | PSMG1 (Homo sapiens, UniProt O95456) | cryo-EM | – | – | – | binding | binds
B7 (rasC Q62L/R164E) | racE T25N/S192D/E173R (Dictyostelium discoideum) | pull-down | – | – | – | binding | binds
GEYSSDFLTPEFVKFSMDLTNTEI (NR4A2 28-51 (Homo sapiens, UniProt P43354); sequence looked up) | Ncoa1 260-385 (Mus musculus, UniProt P70365) | NMR | – | in cis | – | binding | binds
B8 (cysJ 52-599) | cysI 1-570 (Escherichia coli, UniProt P17846) | cryo-EM structure | – | – | – | binding | binds
B9 (PTK2 102-252) | PRKCQ (Homo sapiens, UniProt Q04759) | pull-down | – | – | – | binding | binds
B10 (KtrC) | ktrB 1-445 (Bacillus subtilis, UniProt O32081) | SEC | – | – | – | binding | binds
SKKNNAASELAAPYSSYVSQIRKHKRVSPNAAPR (Nup60 285-318 N296A (Saccharomyces cerevisiae, UniProt P39705); sequence looked up) | NUP85/SEH1 Nup85 1-564 (Saccharomyces cerevisiae) | pull-down | peptide | – | – | binding | binds
EDDICILNHEK (AZI2 6-16 (Homo sapiens, UniProt Q9H6S1)) | RB1CC1 1490-1594 (Homo sapiens, UniProt Q8TDY2) | SEC | – | – | – | binding | binds
B11 (SNAPC4 1-505) | POLR3E (Homo sapiens, UniProt Q9NVU0) | cryo-EM | – | – | – | binding | binds
B12 | MDM4 170-260 W200S/W201G (Homo sapiens, UniProt O15151) | NMR titration | – | – | – | binding | binds
MLLT3 (Homo sapiens, UniProt P42568) | AFF1 (Homo sapiens, UniProt P51825) | complex purification reconstitution | – | – | – | binding | binds
B13 (spt16 1-442) | abo1 (Schizosaccharomyces pombe, UniProt O14114) | pull-down | – | – | – | binding | binds
B14 (Secisbp2 399-846 x) | Eefsec (Mus musculus, UniProt Q9JHW4) | EMSA | – | – | – | binding | binds
B15 (Fcho2 1-390) | AP2A2/AP2B1/AP2M1/AP2S1 core, lacking appendage domains (Mus musculus) | liposome binding | liposomes | – | – | binding | binds

For quick reference, copied from above:
Substance | tested on | assay | system | setting | how to read | measurement | value
GEYSSDFLTPEFVKFSMDLTNTEI (NR4A2 28-51 (Homo sapiens, UniProt P43354); sequence looked up) | Ncoa1 260-385 (Mus musculus, UniProt P70365) | NMR | – | in cis | – | binding | binds
MLLT3 (Homo sapiens, UniProt P42568) | AFF1 (Homo sapiens, UniProt P51825) | complex purification reconstitution | – | – | – | binding | binds
B9 (PTK2 102-252) | PRKCQ (Homo sapiens, UniProt Q04759) | pull-down | – | – | – | binding | binds
